Measured values collected from several papers.
Each line is one published result; not all experiments were run side by side. Values joined by “and” are separate records of one study, mostly repeats; a detail may differ.
PKMYT1: Membrane-associated tyrosine- and threonine-specific cdc2-inhibitory kinase (PKMYT1, Homo sapiens, UniProt Q99640)
TDP1: Tyrosyl-DNA phosphodiesterase 1 (TDP1, Homo sapiens, UniProt Q9NUW8)
Chain of UniProt Q9NUW8 (whole entry, looked up): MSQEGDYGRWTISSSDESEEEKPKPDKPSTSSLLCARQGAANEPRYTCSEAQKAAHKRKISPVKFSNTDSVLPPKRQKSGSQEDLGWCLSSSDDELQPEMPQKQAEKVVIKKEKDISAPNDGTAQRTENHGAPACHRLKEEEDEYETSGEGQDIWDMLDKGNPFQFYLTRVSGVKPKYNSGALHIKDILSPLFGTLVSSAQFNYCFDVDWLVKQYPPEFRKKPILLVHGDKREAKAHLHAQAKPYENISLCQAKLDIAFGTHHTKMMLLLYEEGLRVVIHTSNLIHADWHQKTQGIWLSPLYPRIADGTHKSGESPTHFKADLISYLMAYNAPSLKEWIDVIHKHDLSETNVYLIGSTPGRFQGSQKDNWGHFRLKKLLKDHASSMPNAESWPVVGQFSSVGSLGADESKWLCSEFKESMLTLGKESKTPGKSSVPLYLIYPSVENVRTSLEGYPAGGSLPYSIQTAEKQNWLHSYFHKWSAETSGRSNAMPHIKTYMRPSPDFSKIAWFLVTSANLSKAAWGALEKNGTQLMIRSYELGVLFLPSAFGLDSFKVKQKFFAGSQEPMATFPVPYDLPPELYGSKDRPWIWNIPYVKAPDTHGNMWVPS

SMILES | target | assay | test system | setting | scale | quantity | value
Nc1ncc2c(n1)-c1c([nH]c3ccc(C4=CCOCC4)cc13)CCC2 | PKMYT1 | binding, competition with immobilised ligand |  | 1 µM |  | remaining binding | 97%
N[C@H]1CC[C@H](Nc2nccc(-c3cccnc3Oc3ccc(NC(=O)NC4CC4)c4ccccc34)n2)CC1 | PKMYT1 | kinobead competition pulldown | HEK293/HCT116 lysate mixture | 10 µM, 1 h, 4 °C | lower = stronger competition | log2 LFQ intensity | 20.6 and 21.1 and 19.7 and 19.3
CCN1CCN(Cc2ccc(C(=O)Nc3ccc(C)c(NCc4cnc5[nH]ccc5c4OC)c3)cc2C(F)(F)F)CC1 | PKMYT1 | binding, competition with immobilised ligand |  | 1 µM |  | remaining binding | 92%
CC(C)=CC1OC(C)(C)C2C=C3C(=O)C(Cl)=CC(O)C3C3C(O)C4OC4C(=O)C132 (centres unmarked) | PKMYT1 | cell-free assay, competition with immobilised ligand |  | 10 µM |  | remaining binding | 97%
O=C(O)c1ccc(Nc2c(-c3ccccc3)nc3ccc(CON=Cc4cc(-c5ccccc5)no4)cn23)cc1 | TDP1 | enzyme activity, inhibitor |  | 100 µM, unpurified compound |  | inhibition | 113%
COc1cc(Nc2nc(C)cc(-c3cnn4nc(OC)ccc34)n2)cc(C(F)(F)F)c1 | PKMYT1 | inhibitor |  | 1 µM | baseline: control | remaining activity | 97%
CNC1C[S+]2CC[S+]3CC[S+](C1)[Ru-4]321([N]=C=S)[n]2c3ccc(OC)cc3c3c4c(c5cc(F)c[n+]1c5c32)C(=O)NC4=O (centres unmarked) | PKMYT1 | KinomeScan |  | 0.1 µM | baseline: untreated | remaining binding | 92%
C=CC(=O)N1Cc2nc(-c3cc(-c4cc(Cl)cnc4Cl)c(F)cc3F)n(-c3ccncn3)c2C1 | PKMYT1 | cell-free assay, inhibitor |  | 1 µM |  | inhibition | -0.2%
O=C(O)c1ccc(Nc2c(-c3ccc(CON=Cc4c(-c5cccc(F)c5)nc5sccn45)cc3)nc3cc(-c4ccccc4)ccn23)cc1 (mixture of isomers) | TDP1 | enzyme activity, inhibitor |  | 100 µM, unpurified compound |  | inhibition | 30.9%
Cc1cnc2nc1Nc1cccc(c1)COC/C=C/COCc1cc(ccc1OCCN1CCOCC1)N2 | PKMYT1 | cell-free assay |  | 0.1 µM |  | remaining signal | 95%
COc1c(Cl)cccc1Nc1c(-c2ccncc2C#C[C@@]2(C)CCCN2C(=O)/C=C/CN(C)C)[nH]c2c1C(=O)NCC2 | PKMYT1 | binding, competition with immobilised ligand |  | 3 µM |  | remaining binding | 87%
COc1cc(Nc2nccc(-c3cnn4nc(OC)ccc34)n2)cc(C(F)(F)F)c1 | PKMYT1 | binding, competition with immobilised ligand |  | 1 µM |  | remaining binding | 95%
C=CC(=O)N1CCc2ccc(-n3c(=O)ccc4cnc5ccc(-c6cnn(C)c6)cc5c43)cc21 | PKMYT1 | KINOMEscan |  | 1 µM | baseline: DMSO control | remaining binding | 93%
CNC(=O)C1CCN(c2cc(C)c(F)cc2NC(=O)c2ccc(-c3cc(O)ccc3C)c(C)c2)CC1 | PKMYT1 | binding, competition with immobilised ligand |  | 1 µM |  | remaining binding | 100%
Cc1ccc(-c2c(/C=C(\C#N)C(=O)NC(C)C)n(CCCO)c3ncnc(N)c23)cc1 | PKMYT1 | cell-free assay, competition with immobilised ligand |  | 1 µM |  | remaining binding | 92%
CN1CCN(Cc2ccc(-c3ccc(CO[C@H]4CCC[C@@H]4NC(=O)c4cc(-c5cnn(C)c5)cnc4N)cc3)cc2)CC1 | PKMYT1 | enzyme activity, inhibitor |  | 0.1 µM |  | inhibition | 5%
C=CC(=O)N1CCCC(n2c(=O)c3ncccc3n(Cc3ccc(Oc4ccccc4)cc3)c2=O)C1 (centres unmarked) | PKMYT1 | cell-free assay, competition with immobilised ligand |  | 1 µM |  | remaining binding | 94%
